Assay results pooled from the literature.
Every numbered part comes from another study and shows a few of its results, in no order. “And” joins repeats or separate records; there may be more than shown.
Sequence of UniProt P13945 (whole entry, looked up): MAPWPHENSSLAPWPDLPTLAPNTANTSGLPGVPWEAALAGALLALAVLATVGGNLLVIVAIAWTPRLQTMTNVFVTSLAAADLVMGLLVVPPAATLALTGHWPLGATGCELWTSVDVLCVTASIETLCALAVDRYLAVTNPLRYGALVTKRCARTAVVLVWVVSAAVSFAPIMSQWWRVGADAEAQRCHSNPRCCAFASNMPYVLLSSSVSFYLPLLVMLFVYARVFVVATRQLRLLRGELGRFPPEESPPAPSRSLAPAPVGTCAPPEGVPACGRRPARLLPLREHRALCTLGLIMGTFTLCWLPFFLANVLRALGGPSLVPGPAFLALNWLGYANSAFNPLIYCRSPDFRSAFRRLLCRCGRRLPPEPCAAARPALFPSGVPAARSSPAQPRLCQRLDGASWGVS
Sequence of UniProt P08173 (whole entry, looked up): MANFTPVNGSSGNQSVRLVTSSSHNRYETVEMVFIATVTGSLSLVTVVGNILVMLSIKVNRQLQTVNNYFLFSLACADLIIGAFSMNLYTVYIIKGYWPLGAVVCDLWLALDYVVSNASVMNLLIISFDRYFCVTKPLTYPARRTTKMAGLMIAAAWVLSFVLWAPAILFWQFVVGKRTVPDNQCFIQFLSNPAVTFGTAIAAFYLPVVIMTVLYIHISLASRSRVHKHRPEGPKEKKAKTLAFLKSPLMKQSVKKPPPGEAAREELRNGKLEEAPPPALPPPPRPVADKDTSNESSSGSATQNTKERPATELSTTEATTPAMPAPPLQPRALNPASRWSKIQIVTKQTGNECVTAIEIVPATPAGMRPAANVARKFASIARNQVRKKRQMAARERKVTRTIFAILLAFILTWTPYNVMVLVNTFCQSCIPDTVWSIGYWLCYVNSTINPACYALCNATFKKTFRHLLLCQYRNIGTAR
Sequence of UniProt P47898 (whole entry, looked up): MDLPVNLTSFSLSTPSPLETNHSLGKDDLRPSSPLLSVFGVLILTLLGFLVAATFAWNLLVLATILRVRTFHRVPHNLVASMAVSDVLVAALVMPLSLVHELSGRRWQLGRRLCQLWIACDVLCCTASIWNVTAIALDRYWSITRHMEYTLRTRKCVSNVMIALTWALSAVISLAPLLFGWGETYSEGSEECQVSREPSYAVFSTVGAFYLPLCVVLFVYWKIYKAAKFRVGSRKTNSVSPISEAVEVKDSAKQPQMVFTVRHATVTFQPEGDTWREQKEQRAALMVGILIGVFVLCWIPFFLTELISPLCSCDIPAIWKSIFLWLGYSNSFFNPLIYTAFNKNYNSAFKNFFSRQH
Sequence of UniProt P34969 (whole entry, looked up): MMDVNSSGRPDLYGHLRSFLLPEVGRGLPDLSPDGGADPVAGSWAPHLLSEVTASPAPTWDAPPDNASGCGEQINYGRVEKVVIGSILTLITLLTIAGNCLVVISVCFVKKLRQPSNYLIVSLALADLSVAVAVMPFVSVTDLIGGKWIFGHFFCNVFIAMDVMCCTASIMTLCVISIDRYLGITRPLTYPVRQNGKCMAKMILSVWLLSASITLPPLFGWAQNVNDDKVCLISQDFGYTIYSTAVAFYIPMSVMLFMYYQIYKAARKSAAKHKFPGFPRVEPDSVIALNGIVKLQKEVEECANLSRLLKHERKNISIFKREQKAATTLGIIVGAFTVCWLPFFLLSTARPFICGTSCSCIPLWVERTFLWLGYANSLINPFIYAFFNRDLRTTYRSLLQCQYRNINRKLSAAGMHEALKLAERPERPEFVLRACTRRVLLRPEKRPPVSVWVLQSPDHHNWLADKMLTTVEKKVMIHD
Sequence of UniProt P20309 (whole entry, looked up): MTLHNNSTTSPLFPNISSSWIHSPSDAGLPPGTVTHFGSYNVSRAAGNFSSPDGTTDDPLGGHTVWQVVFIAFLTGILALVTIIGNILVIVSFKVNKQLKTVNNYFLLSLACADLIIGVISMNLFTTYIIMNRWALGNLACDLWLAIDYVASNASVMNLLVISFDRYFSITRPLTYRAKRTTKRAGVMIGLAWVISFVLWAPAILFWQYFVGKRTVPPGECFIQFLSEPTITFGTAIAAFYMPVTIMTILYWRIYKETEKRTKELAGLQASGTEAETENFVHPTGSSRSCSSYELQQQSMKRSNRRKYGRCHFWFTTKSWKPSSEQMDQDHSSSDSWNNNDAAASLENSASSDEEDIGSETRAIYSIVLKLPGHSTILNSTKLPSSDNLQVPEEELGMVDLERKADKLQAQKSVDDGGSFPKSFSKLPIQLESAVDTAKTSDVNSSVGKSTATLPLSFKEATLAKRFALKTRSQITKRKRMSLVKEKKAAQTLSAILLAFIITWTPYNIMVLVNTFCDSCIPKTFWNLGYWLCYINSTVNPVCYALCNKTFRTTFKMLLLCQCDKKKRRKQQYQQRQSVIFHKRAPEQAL
Sequence of UniProt Q01959 (whole entry, looked up): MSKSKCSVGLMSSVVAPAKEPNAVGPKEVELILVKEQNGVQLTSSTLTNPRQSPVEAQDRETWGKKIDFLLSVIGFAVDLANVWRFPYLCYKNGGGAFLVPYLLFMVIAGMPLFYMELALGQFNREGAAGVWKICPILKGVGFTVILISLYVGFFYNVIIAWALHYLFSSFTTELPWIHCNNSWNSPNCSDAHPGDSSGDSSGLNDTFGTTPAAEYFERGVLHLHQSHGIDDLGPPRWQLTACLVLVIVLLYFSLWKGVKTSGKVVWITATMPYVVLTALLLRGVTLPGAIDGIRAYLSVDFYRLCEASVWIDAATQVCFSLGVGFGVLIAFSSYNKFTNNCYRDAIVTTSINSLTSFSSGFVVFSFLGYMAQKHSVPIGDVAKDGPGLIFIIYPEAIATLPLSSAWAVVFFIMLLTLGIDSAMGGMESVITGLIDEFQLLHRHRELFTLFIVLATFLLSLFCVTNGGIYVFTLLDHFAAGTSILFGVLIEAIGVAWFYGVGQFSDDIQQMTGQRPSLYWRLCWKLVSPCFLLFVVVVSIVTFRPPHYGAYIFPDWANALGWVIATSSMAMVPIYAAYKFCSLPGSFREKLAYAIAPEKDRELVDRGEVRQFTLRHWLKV
Sequence of UniProt P21918 (whole entry, looked up): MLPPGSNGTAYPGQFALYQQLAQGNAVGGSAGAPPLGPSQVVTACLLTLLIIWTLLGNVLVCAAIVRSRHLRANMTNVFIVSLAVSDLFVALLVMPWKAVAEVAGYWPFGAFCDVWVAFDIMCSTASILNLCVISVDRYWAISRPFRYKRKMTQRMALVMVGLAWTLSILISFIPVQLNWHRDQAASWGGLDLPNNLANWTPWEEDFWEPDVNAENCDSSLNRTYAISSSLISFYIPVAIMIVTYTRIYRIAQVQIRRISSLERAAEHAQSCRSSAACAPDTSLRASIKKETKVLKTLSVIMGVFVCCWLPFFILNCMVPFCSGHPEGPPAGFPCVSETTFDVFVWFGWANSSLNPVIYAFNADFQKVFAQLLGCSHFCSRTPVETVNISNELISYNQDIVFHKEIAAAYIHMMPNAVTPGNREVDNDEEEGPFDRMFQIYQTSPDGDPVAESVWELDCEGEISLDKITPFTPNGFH
Sequence of UniProt P08172 (whole entry, looked up): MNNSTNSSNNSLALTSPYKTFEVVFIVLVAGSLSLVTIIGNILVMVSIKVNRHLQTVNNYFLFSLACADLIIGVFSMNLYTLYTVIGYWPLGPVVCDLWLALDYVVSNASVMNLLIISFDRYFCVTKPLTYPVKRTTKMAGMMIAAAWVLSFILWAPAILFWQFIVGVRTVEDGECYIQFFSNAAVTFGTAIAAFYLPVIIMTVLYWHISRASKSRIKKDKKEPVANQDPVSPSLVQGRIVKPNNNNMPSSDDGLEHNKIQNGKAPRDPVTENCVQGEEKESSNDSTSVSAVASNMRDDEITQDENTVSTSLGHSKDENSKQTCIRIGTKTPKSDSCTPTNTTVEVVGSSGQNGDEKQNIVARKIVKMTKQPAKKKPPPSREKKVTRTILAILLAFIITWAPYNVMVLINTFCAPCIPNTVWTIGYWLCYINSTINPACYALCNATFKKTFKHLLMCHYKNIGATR
Sequence of UniProt P35372 (whole entry, looked up): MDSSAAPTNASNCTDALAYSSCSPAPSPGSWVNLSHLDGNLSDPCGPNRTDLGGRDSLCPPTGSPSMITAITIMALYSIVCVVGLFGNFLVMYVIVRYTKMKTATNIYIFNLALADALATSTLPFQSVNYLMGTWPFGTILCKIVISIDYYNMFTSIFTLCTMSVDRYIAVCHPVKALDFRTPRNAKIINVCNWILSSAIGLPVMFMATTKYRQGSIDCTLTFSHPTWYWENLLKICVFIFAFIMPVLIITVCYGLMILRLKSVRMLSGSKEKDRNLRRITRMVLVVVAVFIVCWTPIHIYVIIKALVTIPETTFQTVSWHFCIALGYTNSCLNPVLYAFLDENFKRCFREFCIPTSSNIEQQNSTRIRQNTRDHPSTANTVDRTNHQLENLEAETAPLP
Sequence of UniProt P23975 (whole entry, looked up): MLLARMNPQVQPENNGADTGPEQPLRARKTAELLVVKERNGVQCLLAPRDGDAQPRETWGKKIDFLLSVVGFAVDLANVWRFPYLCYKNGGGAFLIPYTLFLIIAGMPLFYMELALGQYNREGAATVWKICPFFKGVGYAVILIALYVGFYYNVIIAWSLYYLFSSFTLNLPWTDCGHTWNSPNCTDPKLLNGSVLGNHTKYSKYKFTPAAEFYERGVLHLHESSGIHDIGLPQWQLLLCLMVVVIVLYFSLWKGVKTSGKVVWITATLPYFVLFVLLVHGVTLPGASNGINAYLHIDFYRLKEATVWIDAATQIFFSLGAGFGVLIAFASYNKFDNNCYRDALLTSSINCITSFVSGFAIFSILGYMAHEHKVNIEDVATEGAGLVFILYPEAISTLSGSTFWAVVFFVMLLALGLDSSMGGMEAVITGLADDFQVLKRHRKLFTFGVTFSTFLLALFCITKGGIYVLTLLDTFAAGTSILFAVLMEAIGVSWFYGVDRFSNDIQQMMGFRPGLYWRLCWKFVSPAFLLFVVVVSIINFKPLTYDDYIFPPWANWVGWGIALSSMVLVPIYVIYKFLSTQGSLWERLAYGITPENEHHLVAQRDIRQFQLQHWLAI

Block 1 — organism: Vesicular stomatitis virus; effect on: pseudovirus infection; method: FDA-approved drug library screen; concentration: concentration not given; setting: VSV-G control pseudotype; baseline: vehicle; measurement: GFP-positive cells
SMILES = COc1cc2nccc(Oc3ccc(NC(=O)NC4CC4)c(Cl)c3)c2cc1C(N)=O; result = 117%
SMILES = O=C([O-])c1ccccc1[O-].[Bi+3].[OH-]; result = 119%
SMILES = O=[As]O[As]=O (stereo not shown); result = 105%
SMILES = CCN(CC)CCNC(=O)c1cc(Cl)c(N)cc1OC.Cl; result = 124%
SMILES = Cl.NCC(=O)CCC(=O)O; result = 124%
SMILES = CC(C(=O)[O-])c1cccc(Oc2ccccc2)c1.CC(C(=O)[O-])c1cccc(Oc2ccccc2)c1.[Ca+2] (stereo not shown); result = 105%
SMILES = C=C1c2c(Cl)ccc(O)c2C(=O)C2=C(O)[C@]3(O)C(=O)C(C(N)=O)=C(O)[C@@H](N(C)C)[C@@H]3[C@@H](O)[C@H]12.O=C(O)c1cc(S(=O)(=O)O)ccc1O; result = 93%
SMILES = S=c1nc[nH]c2nc[nH]c12; result = 98.3%
SMILES = C[C@]1(Cn2ccnn2)[C@H](C(=O)O)N2C(=O)C[C@H]2S1(=O)=O; result = 98.3%
SMILES = NC(=O)N/N=C/c1ccc([N+](=O)[O-])o1; result = 92.5%
SMILES = CCCC(=O)OCOC(=O)C1=C(C)NC(C)=C(C(=O)OC)C1c1cccc(Cl)c1Cl (stereo not shown); result = 86%

Block 2 — target: chymotrypsin; effect on: enzyme activity; mode: inhibitor; concentration: 10 µM; setting: with DTT; measurement: inhibition
Structure (SMILES) = CCN(CC)C(=S)S; result = 6.5%
Structure (SMILES) = CC1(C)C(/C=C/C=C/C=C/C=C2\N(CCCCS(=O)(=O)[O-])c3ccc4ccccc4c3C2(C)C)=[N+](CCCCS(=O)(=O)[O-])c2ccc3ccccc3c21.[Na+]; result = 6.1%
Structure (SMILES) = Cc1cc(-c2ccc(/N=N/c3ccc4c(S(=O)(=O)O)cc(S(=O)(=O)O)c(N)c4c3O)c(C)c2)ccc1/N=N/c1ccc2c(S(=O)(=O)O)cc(S(=O)(=O)O)c(N)c2c1O; result = 7.5% and 8.9%
Structure (SMILES) = Oc1cc2c(cc1O)C(c1ccccc1)CNCC2 (stereo not shown); result = 9%
Structure (SMILES) = CCCCCCCCCCCCCCCCCC[S+](CCC)c1ccccc1C(=O)OCC (stereo not shown); result = 6.5%
Structure (SMILES) = O=C(O)c1cc(O)c2c(c1)[C@H]([C@H]1c3cc(C(=O)O)cc(O)c3C(=O)c3c(O[C@@H]4O[C@H](CO)[C@@H](O)[C@H](O)[C@H]4O)cccc31)c1cccc(O[C@@H]3O[C@H](CO)[C@@H](O)[C@H](O)[C@H]3O)c1C2=O; result = 2.7%
Structure (SMILES) = CN(C)S(=O)(=O)c1cccc(-n2sc3ccccc3c2=O)c1; result = 3.2%
Structure (SMILES) = O=C1C=CC(=O)c2c(O)cccc21; result = 14.9%

Block 3 — cell line: mouse MPNST tumor cells; method: high-content nuclear imaging; refers to: cell number; concentration: 10 µM; time: 12 h; setting: mean of 2 replicates; baseline: plate mean; reading: higher = more cells; measurement: nuclei count
SMILES = COc1cc2c(cc1F)C(c1ccccc1Cl)=Nc1c(n[nH]c1C)N2; result = -0.273 z-score
SMILES = c1ccc(C2CC2)c(OCC2=NCCN2)c1; result = 1.88 z-score
SMILES = CN1CC[C@]2(c3cccc(O)c3)Cc3nc4ccccc4cc3C[C@H]2C1; result = 5.46 z-score
SMILES = CN(C)C(=O)Oc1cc(OC(=O)N(C)C)cc(C(O)CNC(C)(C)C)c1 (stereo not shown); result = 0.603 z-score
SMILES = CC(=O)NCCCOc1ccc(C(=O)N2CCC(N3C(=O)CCc4ccccc43)CC2)cc1; result = 1.1 z-score
SMILES = CC(C)CC(N(C)C)C1(c2ccc(Cl)cc2)CCC1 (stereo not shown); result = 0.443 z-score
SMILES = CCOC(=O)Nc1ccc(NCc2c(C)cc(C)cc2C)cc1N; result = -5.06 z-score
SMILES = CN[C@@H]1C[C@@H](c2ccc(Cl)c(Cl)c2)c2ccccc21; result = -4.76 z-score

Block 4 — effect on: binding; method: radioligand binding; concentration: 10 µM; measurement: inhibition
Compound: Cn1cncc1[C@](O)(COc1ccc(C#N)cc1-c1ccc(OC(F)(F)F)cc1)c1ccc(C#N)cc1
target = Muscarinic acetylcholine receptor M2 (CHRM2, Homo sapiens, UniProt P08172); result = -1.19%
target = D(1B) dopamine receptor (DRD5, Homo sapiens, UniProt P21918); result = 4.79%
target = Sodium-dependent dopamine transporter (SLC6A3, Homo sapiens, UniProt Q01959); result = 9.99%
target = Sodium-dependent noradrenaline transporter (SLC6A2, Homo sapiens, UniProt P23975); result = 21.7%
target = Mu-type opioid receptor (OPRM1, Homo sapiens, UniProt P35372); result = 16.4%
target = 5-hydroxytryptamine receptor 5A (HTR5A, Homo sapiens, UniProt P47898); result = 1.81%
target = 5-hydroxytryptamine receptor 7 (HTR7, Homo sapiens, UniProt P34969); result = 9.15%
target = Muscarinic acetylcholine receptor M4 (CHRM4, Homo sapiens, UniProt P08173); result = 6.81%
target = Beta-3 adrenergic receptor (ADRB3, Homo sapiens, UniProt P13945); result = 32.9%
target = Muscarinic acetylcholine receptor M3 (CHRM3, Homo sapiens, UniProt P20309); result = 23.3%
